# Results collected from several papers.
# Compare with care: the assays were run in different laboratories.
# Cell line: SK-OV-3
SMILES,effect on,mode,method,item,time,IC50 [µM]
NC(=S)NN=Cc1ccc([N+](=O)[O-])o1,cell growth or viability,,resazurin,,,26.7
CCCc1cc2cc(-n3nc(CO)c4c3CC(C)(C)CC4=O)cc(N3CCC(O)CC3)c2c(=O)[nH]1,cell growth or viability,,MTS,,,> 50
CCNC(NN=Cc1ccc([N+](=O)[O-])o1)=[S+][Au-][Cl],cell growth or viability,,resazurin,,,19.2
CCCc1cc2cc(-n3c4c(c5ccccc53)C(=O)CC(C)(C)C4)cc(N3CCC(O)CC3)c2c(=O)[nH]1,cell growth or viability,,MTS,,,11.2
O=[N+]([O-])c1ccc(C=NNC(=S)Nc2ccccc2)o1,cell growth or viability,,resazurin,,,> 100
Oc1ccc(C#Cc2cccc3c2C(c2ccc(O)cc2)(c2ccc(O)cc2)c2cc(O)ccc2-3)cc1,cell growth or viability,,MTT,,48 h,11.4
CNS(=O)(=O)Nc1nccc(Cc2c(C)c3ccc(Oc4ncccc4F)cc3oc2=O)c1F,cell viability,,,,7 days,0.576
CCCc1cc2cc(-n3nc(C)c4ncccc43)cc(N3CCC(O)CC3)c2c(=O)[nH]1,cell growth or viability,,MTS,,,31.2
CCNC(=S)NN=Cc1ccc([N+](=O)[O-])o1,cell growth or viability,,resazurin,,,46.5
CCOc1cncc(-c2ccc(NC(=O)C3(c4ccnc(NS(=O)(=O)C5CC5)n4)CCOCC3)nc2)n1,cell proliferation,,CellTiter-Glo,,72 h,0.064
O=C(O)c1ccc(-c2ccc(O)cc2)c2c1C=C(c1ccc(O)cc1)OC2(c1ccc(O)cc1)c1ccc(O)cc1,cell growth or viability,,MTT,,48 h,8.22
CCCc1cc2cc(-n3nc(CCC)c4c3CC(C)(C)CC4=O)cc(N3CCC(O)CC3)c2c(=O)[nH]1,cell growth or viability,,MTS,,,6.07
Cc1ccc2c(c1C#Cc1ccc(O)cc1)C(c1ccc(O)cc1)(c1ccc(O)cc1)c1cc(O)ccc1-2,cell growth or viability,,MTT,,48 h,11.2
C=CC(=O)N1CCC(Cc2ccc(C(=O)N3CCN(c4nc(-c5cnc(N)nc5C(F)F)nc(N5CCOCC5)n4)CC3)cc2)CC1,Akt phosphorylation,inhibitor,in-cell western,Akt pSer473,1 h,0.0541
O=Cc1ccc(-c2ccc(O)cc2)c(C(=C2C=CC(=O)C=C2)c2ccc(O)cc2)c1C#Cc1ccc(O)cc1,cell growth or viability,,MTT,,48 h,9.17
CCCc1cc2cc(-n3nc(C4CC4(F)F)c4c3CC(C)(C)CC4=O)cc(N3CCC(O)CC3)c2c(=O)[nH]1 (racemic),cell growth or viability,,MTS,,,4.51

# A few entries again:
SMILES,effect on,mode,method,item,time,IC50 [µM]
CCCc1cc2cc(-n3c4c(c5ccccc53)C(=O)CC(C)(C)C4)cc(N3CCC(O)CC3)c2c(=O)[nH]1,cell growth or viability,,MTS,,,11.2
O=[N+]([O-])c1ccc(C=NNC(=S)Nc2ccccc2)o1,cell growth or viability,,resazurin,,,> 100
